Experimental data pooled from the literature.
Numbered parts are unrelated; each lists some results of a single study.

Block 1
Target: RING finger protein unkempt homolog, zinc fingers 1-6, GST-SBP tag (UNK, Homo sapiens, UniProt Q9C0B0, residues 30-357)
Method: RNA Bind-n-Seq
Form: RNA
Medium: in vitro
Concentration: not given
Setting: RNA with constant flanks, human and mouse sites, ends assumed
Reference: input RNA pool
Reading: higher = stronger binding
Target sequence (chain): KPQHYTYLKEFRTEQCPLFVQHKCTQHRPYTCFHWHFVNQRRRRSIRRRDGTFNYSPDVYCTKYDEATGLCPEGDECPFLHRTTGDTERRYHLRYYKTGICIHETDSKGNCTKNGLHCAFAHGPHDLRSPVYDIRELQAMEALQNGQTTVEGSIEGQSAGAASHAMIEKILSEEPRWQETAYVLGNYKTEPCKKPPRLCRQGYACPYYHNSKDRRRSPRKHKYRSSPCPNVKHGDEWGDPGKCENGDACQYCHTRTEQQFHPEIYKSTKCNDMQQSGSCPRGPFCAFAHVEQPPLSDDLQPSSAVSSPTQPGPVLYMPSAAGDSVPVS
| Oligonucleotide | bound/input enrichment [ratio] |
| --- | --- |
| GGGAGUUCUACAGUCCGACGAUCGCAGUGCAGCUGACUGCUCUGGUCAUGAGCAACCAGGCCAUGCAGCAGAGGCUCUUGGCCAUGCUAACGACCUAUGUCACCAAGGAGCUGCAGGCUGAGAUCCGCUAUGAGGACUAGGCCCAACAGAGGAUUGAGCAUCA | 0.0326 |
| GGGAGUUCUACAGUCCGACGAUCUGUAAGUGCCUUUACCUAAAUGAUUUGCCUUUCAUCAAAAAGUAGACAUUCUAUUAUAAGUAUUGCUCUUUGUUUAGUGCAAAAUACGGAGUUCUUAAGUUAGACUGGGCAUGUAACACACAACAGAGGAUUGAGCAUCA | 0.598 |
| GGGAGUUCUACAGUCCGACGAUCUAUAGCCCUGGGUCUUCUGGCGUUCCCUAUGCAAAUGCCAAAGGAAUUGGAUAUCCAGCUGGUUUUCCUGUGGGCUAUGCAGCAGCACCUGCCUAUUCUCCUAACAUGUACCCUGGAGCGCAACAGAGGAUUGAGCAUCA | 0.128 |
| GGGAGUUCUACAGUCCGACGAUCGAGGCCAUUGAGCUUCCAAUAGAUCCCAAGUUGAACAAAAGACGGGGUUUUGUUUUUAUUACAUUUAAAGAGGAAGAUCCUGUGAAGAAAGUUCUGGAGAAGAAAUUUCAUACUGUCAGUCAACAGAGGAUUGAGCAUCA | 0.357 |
| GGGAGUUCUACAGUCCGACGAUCAAUGCUGUCCUCAAUGCUGGAGCUGGAGAGGAUAAUCUGGAGUUCCGCCUACAUCUACGGUAUGAAUUCCUGAUGCUGGGUAUACAGCCUGUGAUUGACAAGCUCCGGCAACAUGAAAAUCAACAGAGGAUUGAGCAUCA | 0.0997 |
| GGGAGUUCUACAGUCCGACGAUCCCACUGGACAUUGAAUGGCUGAUAUCCCCGUCUGAUAACCAGAUAGUGGAUCAAGUGAUCAUUUUGUAUUCUGGAGACAAAAUUUAUGAUAACUACUAUCCGGAUCUGAAAGGACGGGUACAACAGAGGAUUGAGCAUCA | 0.562 |
| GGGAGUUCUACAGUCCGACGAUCUACAAGUAUUUUAAUUUAAGUUCAGUGAACUUUUUUGUAGCUGGGUUAAAUCUUUUUAUUUUUAGUAUGGCCUUAUGGCAAAGAACACUGUAUUAUUUUAAUAAUCACACGAUUGUGACGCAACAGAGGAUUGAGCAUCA | 2.14 |
| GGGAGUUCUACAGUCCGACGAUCUACGAAACAGUGGUUGGCCCUGGUGAUGUUCUUUACAUCCCAAUGUACUGGUGGCAUCACAUAGAGUCAUUACUAAAUGGGGGGAUUACCAUCACUGUGAACUUCUGGUAUAAGGGGGCUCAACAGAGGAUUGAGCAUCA | 0.115 |

Block 2
Target: Prothrombin, mature alpha-thrombin (F2, Homo sapiens, UniProt P00734)
Method: aptamer microarray, sandwich
Form: DNA with 2'F-ANA
Medium: in vitro
Concentration: 200 nM
Setting: whole 15-mer aptamer, many near background
Added: Cy3 exosite-II aptamer, 400 nM
Reading: higher = stronger binding
Oligonucleotide: GGTTGGTGTGGTTGG
| Modification | mean fluorescence intensity [a.u.] |
| --- | --- |
| 2'F-ANA at 1 3 4 10 14 | 49.5 |
| 2'F-ANA at 1 3 4 5 7 9 11 12 13 15 | 62.1 |
| 2'F-ANA at 1 6 8 9 10 12 15 | 66.9 |
| 2'F-ANA at 2 4 5 6 7 9 12 13 14 15 | 49 |
| 2'F-ANA at 1 3 6 8 9 12 13 15 | 505 |
| 2'F-ANA at 2 3 4 5 6 8 9 10 13 14 | 191 |
| 2'F-ANA at 6 7 8 11 15 | 420 |
| 2'F-ANA at 2 3 6 7 8 11 12 | 1020 |
| 2'F-ANA at 1 3 5 6 12 13 14 | 43 |
| 2'F-ANA at 1 3 4 6 7 10 12 15 | 79 |
| 2'F-ANA at 1 3 4 10 13 15 | 74 |
| 2'F-ANA at 1 2 7 8 12 14 | 79.6 |
| 2'F-ANA at 1 3 7 8 11 12 14 15 | 139 |
| 2'F-ANA at 3 4 6 7 8 9 10 12 15 | 293 |
| 2'F-ANA at 3 4 6 7 8 10 11 12 13 15 | 235 |

Block 3
Target: RNA binding protein fox-1 homolog 2, RRM domain, GST-SBP tag (RBFOX2, Homo sapiens, UniProt O43251-10, residues 100-194)
Method: RNA Bind-n-Seq
Form: RNA
Medium: in vitro
Concentration: 365 nM
Setting: natural RNA segment, single round, ends assumed
Reference: no-protein control
Reading: higher = stronger binding
Construct (chain): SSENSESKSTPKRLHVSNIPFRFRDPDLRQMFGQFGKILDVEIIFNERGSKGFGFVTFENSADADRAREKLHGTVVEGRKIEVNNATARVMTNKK
| Oligonucleotide | RBNS enrichment (R) |
| --- | --- |
| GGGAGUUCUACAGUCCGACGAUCCUGAGGGAGGGAAAUACAGAAGCCACCUUUUUAUUUCUCUUCACUGUGUACAAGUUCACUUGUUGUCUUGAACACUGUCUCAAAUACCUGCUUUUUGUUUUGGAUAGUACUGGAAUUCUCGGGUGCCAA | 0.348 |
| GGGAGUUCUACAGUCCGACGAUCUUCCCACAAGUCAGGGGUCCAGAUAAAAUGAGGGUUAUCAGCUAACUGAUAUGCUAUCAUUGAGGUUCAUCAAUGAAUUUGUACAUUUCUAGUUCCCUUUGGUGAAGGGAUGGAAUUCUCGGGUGCCAA | 0.24 |
| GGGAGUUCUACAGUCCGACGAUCUGUAUAACAGAUUAUUGUUCAUACUUGUAAAGCAUCUUAUGUCAUUGAGAAUAUAAAGAACAGUGCCUUAGAAGACAGUGAAAGGUAAGCUCUAGCUUAAUGUCUAUGAUUGGAAUUCUCGGGUGCCAA | 0.41 |
| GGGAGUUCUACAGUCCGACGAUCACAUGGAUUCUGAGAAGUCCAGGGUCUGAAUUGUUGUCUCUGAUUACUGGAAGGACAGGUUAACUGAAUGUCUGUGAUCACUAACAGGUGAUGGGCUUUGUGCCCACUCCUGGAAUUCUCGGGUGCCAA | 0.239 |
| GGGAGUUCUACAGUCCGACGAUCGCCUCUCUCACUGGUCAUGUAUUUAUUCCAUAUUUAUAUGGUCUACUUCCUGUGGCUGGGAGCAGCAGCUCCUGAAGGUUCCGUGGGGGUGCGGGGGGUUGGACAGGACAUGGAAUUCUCGGGUGCCAA | 0.292 |
| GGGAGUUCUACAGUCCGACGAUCGAUUUUUGUGAUUAUAGUAAUAAAAUGAUAUUACUUGUGAAAUAUUAGUAAUAAAUUAUUUGAGUAUAUAAACACGUUAGGGAUCUUUUUUUAAUAGGAAAAAUACUUUCUGGAAUUCUCGGGUGCCAA | 0.731 |
| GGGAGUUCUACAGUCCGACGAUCUGUUGUUUUGUUGUUUUACUAUAUGUAAUACAAGCCUACAGUAUUUGCACUAAAGAAAGCUUGUUAGAAAAAGCUUGCUGCUAUGGAAGAAAGAACAUAUUAAAACUUCUUGGAAUUCUCGGGUGCCAA | 0.45 |
| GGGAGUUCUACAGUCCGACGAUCUGAUGACUGUCAGCAUCACUGCCGCAGGCCAUGCUUGACUAAGGUACCUGGUUUUAGCCACAGCCACCUCCUUGUAUGUUACCUUUCAGCUCUGGCCAAGAGUGGGACAGUGGAAUUCUCGGGUGCCAA | 0.642 |

Block 4
Target: Interferon regulatory factor 7, full length, phosphomimetic (IRF7, Homo sapiens, UniProt Q92985, residues 1-503, S471D/S472D/S475D/S476D/S477D/S483D/S484D/S487D)
Chain of UniProt Q92985 (whole entry, unmodified, looked up): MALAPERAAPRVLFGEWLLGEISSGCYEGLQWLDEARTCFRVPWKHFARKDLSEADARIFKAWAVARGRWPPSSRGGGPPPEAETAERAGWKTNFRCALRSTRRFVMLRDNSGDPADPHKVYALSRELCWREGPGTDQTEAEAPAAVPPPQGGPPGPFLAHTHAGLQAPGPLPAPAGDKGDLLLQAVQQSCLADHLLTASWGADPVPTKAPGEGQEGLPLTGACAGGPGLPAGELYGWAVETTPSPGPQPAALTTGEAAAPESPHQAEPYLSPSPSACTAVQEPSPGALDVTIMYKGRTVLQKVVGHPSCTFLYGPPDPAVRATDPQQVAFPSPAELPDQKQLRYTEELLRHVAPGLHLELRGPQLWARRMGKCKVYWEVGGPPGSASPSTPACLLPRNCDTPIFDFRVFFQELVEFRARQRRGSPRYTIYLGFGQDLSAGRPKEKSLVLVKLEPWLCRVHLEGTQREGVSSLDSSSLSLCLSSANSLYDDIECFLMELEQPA
Method: protein-binding microarray
Form: double-stranded DNA, one strand shown
Medium: in vitro
Concentration: 2200 nM top
Setting: 60-bp whole probe
Added: salmon DNA 0.4 mg/ml
Reference: random background probes
Reading: higher = stronger binding
All sequences stand within: GCCTAGCAC … GTCTTGATTCGCTTGACGCTGCTG
| Oligonucleotide | fitted relative affinity |
| --- | --- |
| TCATCTCTCATGTTACAACTGTGCTAG | 1.78 z-score |
| GACGAACTGAGATTCGAGACGTGCTAG | -0.092 z-score |
| TTAGGTTTCGGGCCTGGGTTAGTGCTA | 2.03 z-score |
| GACGGACTGGGTTTCGGTACGTGCTAG | 2.02 z-score |
| TTAGTTATCGACACTGGGTTAGTGCTA | 0.26 z-score |
| TCAATTTTCGGGTAGATGACTGTGCTA | 5.07 z-score |
| GACGGTCTCCTTATCCTGGCGTGCTAG | 0.898 z-score |
| TCACAACTTTTTTTAATACTGTGCTAG | 0.0678 z-score |
| TGGGCACACTTTGGGTCCTGGTGCTAG | -0.839 z-score |
| TCACTTTACACACATCATACTGTGCTA | 2.85 z-score |
| TTAGAGCTGAGACTGGATTAGTGCTAG | -0.975 z-score |
| TCATGTATGGATGTGTCACTGTGCTAG | 0.882 z-score |
| GACGGAATGCTTTTCCTGACGTGCTAG | 0.749 z-score |
| TAAGGACTGGGGACTGGGTTAGTGCTA | -1.13 z-score |
| TTAGATATCAGACAGGATTAGTGCTAG | -0.495 z-score |
| TTAGGTCTCGGTATCGTTTAGTGCTAG | 0.957 z-score |
| GACGAACTAGGGTATCGAGACGTGCTA | -0.545 z-score |
| GACGGACTGAGTATCGAGACGTGCTAG | -0.438 z-score |
| TCGTAAGCAAAAATGATTGGGTGCTAG | -0.292 z-score |

A few entries again (block 4):
| Oligonucleotide | fitted relative affinity |
| --- | --- |
| TCATCTCTCATGTTACAACTGTGCTAG | 1.78 z-score |
| GACGAACTAGGGTATCGAGACGTGCTA | -0.545 z-score |
| TTAGGTCTCGGTATCGTTTAGTGCTAG | 0.957 z-score |
| TCACTTTACACACATCATACTGTGCTA | 2.85 z-score |
